Measurements pooled from the literature.
Lines come from different studies, so protocols differ. Numbers after ± are the reported error.
gag-pol integrase: Gag-Pol polyprotein, integrase (gag-pol, Human immunodeficiency virus type 1 group M subtype B, UniProt P04585)
F fusion protein: Fusion glycoprotein F0, fusion protein (F, Parainfluenza virus 5, UniProt P04849)

SMILES | target | test | test system | setting | IC50 [nM]
CC[C@H](C)[C@@H]1NC(=O)[C@@H](NC(=O)[C@H](CO)NC(=O)[C@@H](N)CCCNC(=N)N)CSSC[C@@H](C(=O)O)NC(=O)[C@H]([C@@H](C)O)NC(=O)CNC(=O)[C@@H]2CSSC[C@@H]3NC(=O)[C@H](CCC(N)=O)NC(=O)[C@H](Cc4ccccc4)NC(=O)[C@H](C)NC(=O)[C@H]([C@@H](C)O)NC(=O)[C@H](CSSC[C@H](NC(=O)[C@H](Cc4ccccc4)NC(=O)[C@H](CO)NC(=O)[C@H](CC(C)C)NC(=O)[C@H](CCCNC(=N)N)NC(=O)[C@H](Cc4ccc(O)cc4)NC(=O)[C@H](CCCCN)NC(=O)[C@H](CCSC)NC(=O)[C@H](CO)NC(=O)[C@H](Cc4cnc[nH]4)NC(=O)[C@H](CCCCN)NC3=O)C(=O)N[C@@H](CCCNC(=N)N)C(=O)N[C@@H](CCCCN)C(=O)N[C@@H]([C@@H](C)O)C(=O)N2)NC(=O)[C@H](CCCNC(=N)N)NC(=O)[C@H](CO)NC(=O)[C@H](CCCCN)NC(=O)[C@@H]2CCCN2C(=O)[C@H]([C@@H](C)CC)NC(=O)[C@H]([C@@H](C)O)NC(=O)[C@H](CC(=O)O)NC1=O | Potassium voltage-gated channel subfamily A member 3 (KCNA3, Homo sapiens, UniProt P22001) | ion current, inhibitor |  | pH 7.4, oocytes | 0.25
C=CCCC[C@](C)(NC(=O)CNC(=O)[C@H](C)NC(=O)[C@H](CC(C)C)NC(=O)[C@](C)(CCCC=C)NC(=O)[C@H](CC(C)C)NC(=O)[C@H](CC(C)C)NC(=O)[C@H](Cc1ccccc1)NC(=O)[C@H](Cc1ccc(O)cc1)NC(=O)[C@H](C)NC(=O)[C@@H](N)[C@@H](C)O)C(=O)N[C@@H](Cc1c[nH]c2ccccc12)C(N)=O | gag-pol integrase | integrase strand transfer, inhibitor |  |  | > 100000
CC[C@H](C)[C@H](NC(=O)CNC(=O)[C@H](Cc1c[nH]c2ccccc12)NC(=O)[C@@H](NC(=O)[C@@H](NC(=O)[C@H](CC(C)C)NC(=O)[C@H](CCC(N)=O)NC(=O)[C@H](CC(C)C)NC(=O)[C@H](C)NC(=O)[C@H](Cc1c[nH]cn1)NC(=O)[C@H](CCC(N)=O)NC(=O)[C@H](CCC(N)=O)NC(=O)[C@H](C)NC(=O)[C@H](CCC(=O)O)NC(=O)[C@@H](NC(=O)[C@H](C)NC(=O)[C@H](CCCNC(=N)N)NC(=O)[C@H](CC(C)C)NC(=O)[C@@H](NC(=O)[C@H](CC(N)=O)NC(=O)[C@H](CC(N)=O)NC(=O)[C@@H](NC(=O)[C@H](CCC(N)=O)NC(=O)[C@H](CCC(=O)O)NC(=O)[C@@H](NC(=O)[C@@H](NC(=O)[C@H](CCCCN)NC(=O)[C@H](CO)NC(=O)[C@@H](NC(=O)[C@H](CC(C)C)NC(=O)[C@H](CCC(=O)O)NC(=O)[C@H](CCCNC(=N)N)NC(=O)[C@@H](NC(=O)[C@@H](N)CCC(N)=O)[C@@H](C)CC)[C@@H](C)CC)[C@@H](C)CC)C(C)C)[C@@H](C)CC)[C@@H](C)CC)[C@@H](C)CC)[C@@H](C)O)C(C)C)C(=O)N[C@@H](CCCCN)C(=O)N[C@@H](CCC(N)=O)C(=O)N[C@@H](CC(C)C)C(=O)N[C@@H](CCC(N)=O)C(=O)N[C@@H](C)C(=O)N[C@@H](CCCNC(=N)N)C(=O)N[C@H](C(=O)N[C@@H](CC(C)C)C(=O)N[C@@H](C)C(=O)N[C@H](C(=O)N[C@@H](CCC(=O)O)C(=O)N[C@@H](CCCNC(=N)N)C(=O)N[C@@H](Cc1ccc(O)cc1)C(=O)N[C@@H](CC(C)C)C(=O)N[C@@H](CCCCN)C(=O)N[C@@H](CC(=O)O)C(=O)N[C@@H](CCC(N)=O)C(N)=O)C(C)C)[C@@H](C)CC | HIV-1 gp41 5-helix | D5 antibody binding, FRET competition |  |  | > 300
CC[C@H](C)[C@H](NC(=O)[C@H](C)NC(=O)[C@H](CO)NC(=O)[C@H](CC(C)C)NC(=O)[C@H](Cc1ccc(O)cc1)NC(=O)[C@@H](NC(=O)[C@H](CC(=O)O)NC(=O)[C@H](CO)NC(=O)[C@H](CCC(N)=O)NC(=O)[C@H](C)NC(=O)[C@H](CC(C)C)NC(=O)[C@H](Cc1c[nH]cn1)NC(=O)[C@H](CCC(N)=O)NC(=O)[C@H](CC(C)C)NC(=O)[C@H](C)NC(=O)[C@H](CC(=O)O)NC(=O)[C@H](CO)NC(=O)[C@H](CC(C)C)NC(=O)[C@H](CO)NC(=O)[C@H](CCCCN)NC(=O)[C@H](CC(N)=O)NC(=O)[C@@H](NC(=O)[C@H](C)NC(=O)[C@H](C)NC(=O)[C@H](CC(C)C)NC(=O)[C@H](CC(N)=O)NC(=O)[C@H](CCC(N)=O)NC(=O)[C@H](CO)NC(=O)[C@@H](NC(=O)[C@H](CC(=O)O)NC(=O)[C@H](CC(C)C)NC(=O)[C@@H]1CCCN1C(=O)[C@H](CC(=O)O)NC(=O)[C@@H](NC(=O)[C@H](CO)NC(=O)[C@H](CC(C)C)NC(=O)[C@@H](NC(=O)[C@H](CCC(N)=O)NC(=O)[C@H](CO)NC(=O)[C@H](CO)NC(=O)[C@H](CCC(=O)O)NC(=O)[C@H](CC(C)C)NC(=O)[C@@H](N)CCCCN)[C@@H](C)CC)[C@@H](C)CC)[C@@H](C)CC)C(C)C)[C@@H](C)O)C(=O)O | F fusion protein | cell-cell fusion, inhibitor, luciferase reporter | Vero plus BSR-T7 cells | 6 h, 37 °C, together with: SV5 F and HN | 38 ± 4
C[C@H](NC(=O)[C@H](C)NC(=O)[C@@H]1CCCN1C(=O)[C@@H](N)Cc1ccc(O)cc1)C(=O)N[C@@H](CO)C(=O)N[C@@H](Cc1ccc(O)cc1)C(=O)N[C@@H](CCCNC(=N)N)C(=O)O | Protein Rev (Human immunodeficiency virus type 1 group M subtype B, UniProt P04618) | ligand displacement, FP |  |  | 179
CC[C@H](C)[C@H](N)C(=O)N[C@@H](CC(N)=O)C(=O)N[C@@H](CC(N)=O)C(=O)N[C@H](C(=O)N1C[C@@H](n2cc([C]34[CH]5[CH]6[CH]7[CH]3[Fe]6754389%10[CH]4[CH]3[CH]8[CH]9[CH]4%10)nn2)C[C@H]1C(=O)N[C@@H](Cc1ccc(O)cc1)C(N)=O)[C@@H](C)CC (stereo partly shown) | Envelope glycoprotein gp160, gp120 (env, Human immunodeficiency virus type 1 group M subtype B, UniProt P35961, M413A) | binding to soluble CD4, inhibitor, competition SPR |  | gp120 M426A mutant | 5100 ± 200
CC[C@H](C)[C@H](NC(=O)[C@H](C)NC(=O)[C@H](CCC(=O)O)NC(C)=O)C(=O)N[C@H](C(=O)N[C@H]1CCCC=CCCC[C@@H](C(=O)N[C@@H](CC(C)C)C(=O)N[C@@H](CC(C)C)C(=O)N[C@@H](Cc2ccccc2)C(=O)N[C@H](C(=O)N[C@@H](Cc2c[nH]cn2)C(=O)N[C@@H](Cc2ccccc2)C(=O)N[C@@H](CCCNC(=N)N)C(=O)N[C@H](C(=O)NCC(N)=O)[C@@H](C)CC)[C@@H](C)CC)NC(=O)[C@H](CCC(N)=O)NC(=O)[C@H](CC(C)C)NC(=O)[C@H]([C@@H](C)CC)NC1=O)[C@@H](C)CC | gag-pol integrase | strand transfer, inhibitor | HIV-1 |  | 54400 ± 9600
CC(=O)NCCC[C@@H](NC(=O)[C@@H](N)Cc1ccc(O)cc1)C(=O)N[C@@H](Cc1ccccc1)C(=O)NCC(=O)N[C@@H](Cc1ccc(O)cc1)C(=O)N1CCC[C@H]1C(=O)N[C@@H](CO)C(N)=O | Delta-type opioid receptor (Oprd1, Mus musculus, UniProt P32300) | radioligand binding | CHO cells | together with: 0.15 nM [3H]DPDPE | 272 ± 23
CC[C@H](C)[C@H](NC(=O)[C@H](C)NC(=O)[C@H](CCC(=O)O)NC(C)=O)C(=O)N[C@H](C(=O)N[C@@H](CCCNC(=N)N)C(=O)N[C@H](C(=O)N[C@H]1CCCC=CCCC[C@@H](C(=O)N[C@@H](Cc2ccccc2)C(=O)N[C@H](C(=O)N[C@@H](Cc2c[nH]cn2)C(=O)N[C@@H](Cc2ccccc2)C(=O)N[C@@H](CCCNC(=N)N)C(=O)N[C@H](C(=O)NCC(N)=O)[C@@H](C)CC)[C@@H](C)CC)NC(=O)[C@H](CC(C)C)NC(=O)[C@H](CCC(N)=O)NC(=O)[C@H](CCC(N)=O)NC1=O)[C@@H](C)CC)[C@@H](C)CC | gag-pol integrase | strand transfer, inhibitor | HIV-1 |  | 1900 ± 200
CC[C@H](C)[C@H](NC(=O)[C@H](C)NC(=O)[C@H](CO)NC(=O)[C@H](CC(C)C)NC(=O)[C@H](Cc1ccc(O)cc1)NC(=O)[C@@H](NC(=O)[C@H](CC(=O)O)NC(=O)[C@H](CO)NC(=O)[C@H](CCC(N)=O)NC(=O)[C@H](C)NC(=O)[C@H](CC(C)C)NC(=O)[C@H](Cc1c[nH]cn1)NC(=O)[C@H](CCC(N)=O)NC(=O)[C@H](CC(C)C)NC(=O)[C@H](C)NC(=O)[C@H](CC(=O)O)NC(=O)[C@H](CO)NC(=O)[C@H](CC(C)C)NC(=O)[C@H](CO)NC(=O)[C@H](CCCCN)NC(=O)[C@H](CC(N)=O)NC(=O)[C@@H](NC(=O)[C@H](C)NC(=O)[C@H](C)NC(=O)[C@H](CC(C)C)NC(=O)[C@H](CC(N)=O)NC(=O)[C@H](CCC(N)=O)NC(=O)[C@H](CO)NC(=O)[C@H](CC(C)C)NC(=O)[C@H](CC(=O)O)NC(=O)[C@H](CC(C)C)NC(=O)[C@@H]1CCCN1C(=O)[C@H](CC(=O)O)NC(=O)[C@@H](NC(=O)[C@H](CO)NC(=O)[C@H](CC(C)C)NC(=O)[C@@H](NC(=O)[C@H](CCC(N)=O)NC(=O)[C@H](CO)NC(=O)[C@H](CO)NC(=O)[C@H](CCC(=O)O)NC(=O)[C@H](CC(C)C)NC(=O)[C@@H](N)CCCCN)[C@@H](C)CC)[C@@H](C)CC)C(C)C)[C@@H](C)O)C(=O)O | F fusion protein | cell-cell fusion, inhibitor, luciferase reporter | Vero plus BSR-T7 cells | 6 h, 37 °C, together with: SV5 F and HN | 54 ± 5
